Measured values pooled from the literature.
Parts stem from different laboratories: compare values within a part only.

Study 1 — method: RNA Bind-n-Seq; form: RNA; medium: in vitro; tested at: 1 µM; setting: whole 134-nt RNA, ends assumed; together with: 150 mM KCl; relative to: input library; direction: higher = stronger binding
Target: Ras GTPase-activating protein-binding protein 1, C-terminal RGG region (G3BP1, Homo sapiens, UniProt Q13283)
UniProt Q13283, sequence (whole entry, looked up): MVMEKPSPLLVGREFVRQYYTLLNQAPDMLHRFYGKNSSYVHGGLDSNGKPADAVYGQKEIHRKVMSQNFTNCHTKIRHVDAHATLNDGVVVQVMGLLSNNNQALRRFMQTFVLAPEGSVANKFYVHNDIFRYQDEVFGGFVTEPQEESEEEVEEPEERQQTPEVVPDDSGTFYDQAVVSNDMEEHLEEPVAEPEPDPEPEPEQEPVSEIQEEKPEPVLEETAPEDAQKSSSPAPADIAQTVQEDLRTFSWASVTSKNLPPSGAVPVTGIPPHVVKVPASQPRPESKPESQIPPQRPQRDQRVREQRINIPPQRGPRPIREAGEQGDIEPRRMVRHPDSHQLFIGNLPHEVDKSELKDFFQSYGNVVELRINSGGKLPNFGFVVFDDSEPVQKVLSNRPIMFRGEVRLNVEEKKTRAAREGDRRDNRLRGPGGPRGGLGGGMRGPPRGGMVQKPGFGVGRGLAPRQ
All sequences stand within: GGGAGUUCUACAGUCCGACGAUC … UGGAAUUCUCGGGUGUCAAGG
Sequence	log2 enrichment
GCAGGAAGUAAAAACAAAUGGAAAUGCUUCGGAUAGUGGCAGGGGUGGGGGUUGCUAAGGAAAGGGUGGGAUGGGAGUGGGUAAAGACUU	0.454
AAGUCCUGUGCUACACAUCGUAUGUACCGAAUCGGGGAAAGGGGAGGGGAAAGGGGAAAGUAUUAUGUUACGCCGUUCGGAUCUGCACUU	2.58
UGGGAGGUGGAGUUUGUUUAUUUUUUUAGCUCAUUUCCAGGGGUGGGAAUUUUUUUUUAAUAUGUGUCAUGAAUAAAGUUGUUUUUGAAA	3.6
GCAGGAAGUAAAAACAAAUGGAAAUGCUUCGGAUAGUGGCAGAGGUGGGGGUUGCUAAGGAAAGGGUGGGAUGGGAGUGGGUAAAGAGUU	0.921
CUCAAGUCCUGUGCUACACAUCGUAUGUACCGAAUCGGGUUUGGGUGGGUGGGAAAGUAUUAUGUUACGCCGUUCGGAUCUGCACUUCCA	2.06
GCAGGAAGUAAAAACAAAUGGAAAUGCUUCGGAUAGUGGCACGGGUGGGGGUUGCUAAGGAAAGGGUGGGAUGGGAGUGGGUAAAGAGUU	1.08
AAGUCCUGUGCUACACAUCGUAUGUACCGAAUCGGUUUUUUUGGUUUUUUUGGUGGAAAGUAUUAUGUUACGCCGUUCGGAUCUGCACUU	-1.99
UCAAGUCCUGUGCUACACAUCGUAUGUACCGAAUCGGGUUUGGUUUGGGUUUGGAAAGUAUUAUGUUACGCCGUUCGGAUCUGCACUUCC	-1.13
CUCAAGUCCUGUGCUACACAUCGUAUGUACCGAAUCGGUUUGGUUUGGUUUGGGAAAGUAUUAUGUUACGCCGUUCGGAUCUGCACUUCC	-1.38

Study 2 — method: RNA Bind-n-Seq; form: RNA; medium: in vitro; tested at: 365 nM; relative to: no-protein control; direction: higher = stronger binding
Target: RNA binding protein fox-1 homolog 2, RRM domain, GST-SBP tag (RBFOX2, Homo sapiens, UniProt O43251-10, residues 100-194)
Setting: natural RNA segment, single round, ends assumed
All sequences stand within: GGGAGUUCUACAGUCCGACGAUC … UGGAAUUCUCGGGUGCCAA
Construct (chain): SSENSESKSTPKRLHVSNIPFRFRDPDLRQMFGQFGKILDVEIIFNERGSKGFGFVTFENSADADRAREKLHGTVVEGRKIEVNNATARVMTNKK
Sequence	RBNS enrichment (R)
CUGAAGGAUGGGCAACUGAUCACAUUAUUACUUAAUAGUUUUUUUUUUUCUUGCAGUGUGUGUGUGUGCUAUACCUUAAUGGGGAAGGGGGGGUCGAUAUGCAUUAUAUG	3.36
UCUGGGGGUUCAGAUGGGUAGCACUAAGCCAGCUGGCCUAAAGAUGCAAUAAGUUCCUAGGUAGUCUACCCUUACCUUGAGGAAUGGGAAAAUGAACCUCAGCCCAUUAG	0.421
GUCACAUUCCCUGUGUUCAGAGCCUGGAAAUGAAAUUGAGUUCAGUUCAGCCUCUCUGUAAUGAAUCAAGAAAUGUAAAAGAGCUUUGAGACCCCAAGGGAAAGGAGAGA	0.751
AUCCAUGUACUUGUUUGCAAGCAGGACUUUGAGGCAAGUGUGGGCCACUGUGGUGGCAGUGGAGGUGGGGUGUUUGGGAGGCUGCGUGCCAGUCAAGAAGAAAAAGGUUU	0.692
UGGGUCAGGGGCUCAGUAUGAGAAGAAGAAAUAUGAACAGCAAAUAAAACAUUUUUGUAUAAGCUCAUGCGUGUUUCUUUUCCCCAGCCCCAGCUCUGGCUUAUGUACCU	0.284
CAUCAGAUACCUGGGCCUCCUCCAUCAGAUGUCUGGGCCUCCUCCAUCAGAUGUCUGGGCCUCCUCCAUCAGAUGUCUGGGCCUCCUCCAUCAGAUGCUUGGGCCUCCUC	0.327
AACAUGAGGGGCUUCCAUUUUCUGUGUUUUGUAAGGGAACUGUUUCCUUCAUGCCGCCAUGUUCCUGAUAUUAGUUCUGAUUUCUUUUUAACAAAUGUUAUCAUGAUUAA	0.449
GAGAACUUGGAAUGUUUGAACCACAGCCCUCAGAACUUUAGUAACAGCACAACAAAUUAAAACAACUCAUGCCACAGUAUGUUGUCUUCAUGUGUCUUGCAAUGAACUGU	0.692

Study 3 — method: protein binding microarray; form: double-stranded DNA, one strand shown; medium: in vitro; tested at: not given; relative to: not given; direction: higher = stronger binding
Target: Histone acetyltransferase KAT6A, winged helix 1, GST fusion (KAT6A, Homo sapiens, UniProt Q92794, residues 1-85)
Setting: 8-mer, flanks averaged, mean of 2 arrays, mostly near background
Residues (chain): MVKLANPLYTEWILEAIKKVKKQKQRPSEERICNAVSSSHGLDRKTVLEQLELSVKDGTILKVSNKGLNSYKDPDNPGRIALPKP
Sequence	E-score
CGATTGAA	-0.0704
AGGCAACC	-0.127
TGGCATAA	-0.261
GATCCGGA	-0.0974
TCGGGCAA	0.039
CGCACCGA	0.121
AGCGGGCG	0.413
AGTCTGGA	-0.149
TGCCCACA	-0.147
CAGGCACG	0.00373
ATCCTTGA	-0.142
CGCAAGCG	0.359
ACATGGCA	-0.21
CCCAGCGG	0.125
CTTACAAA	-0.0622
CTAGTGTC	-0.0616
GGCCCTAA	-0.0192
CCCGGGCC	0.397
CGCGGTAG	0.361
AAGAACGC	0.0307
GCGTATCA	0.107
AATCTCGA	-0.121
ACATTATC	0.00228
AGTGCCAC	-0.226
CTGTTCGA	-0.301

Study 4 — method: protein-binding microarray; form: double-stranded DNA, one strand shown; medium: in vitro; tested at: 2200 nM top; setting: 60-bp whole probe; together with: salmon DNA 0.4 mg/ml; relative to: random background probes; direction: higher = stronger binding; all sequences stand within: GCCTAGCAC … GTCTTGATTCGCTTGACGCTGCTG
Target: Interferon regulatory factor 7, full length, phosphomimetic (IRF7, Homo sapiens, UniProt Q92985, residues 1-503, S471D/S472D/S475D/S476D/S477D/S483D/S484D/S487D)
UniProt Q92985, sequence (whole entry, unmodified, looked up): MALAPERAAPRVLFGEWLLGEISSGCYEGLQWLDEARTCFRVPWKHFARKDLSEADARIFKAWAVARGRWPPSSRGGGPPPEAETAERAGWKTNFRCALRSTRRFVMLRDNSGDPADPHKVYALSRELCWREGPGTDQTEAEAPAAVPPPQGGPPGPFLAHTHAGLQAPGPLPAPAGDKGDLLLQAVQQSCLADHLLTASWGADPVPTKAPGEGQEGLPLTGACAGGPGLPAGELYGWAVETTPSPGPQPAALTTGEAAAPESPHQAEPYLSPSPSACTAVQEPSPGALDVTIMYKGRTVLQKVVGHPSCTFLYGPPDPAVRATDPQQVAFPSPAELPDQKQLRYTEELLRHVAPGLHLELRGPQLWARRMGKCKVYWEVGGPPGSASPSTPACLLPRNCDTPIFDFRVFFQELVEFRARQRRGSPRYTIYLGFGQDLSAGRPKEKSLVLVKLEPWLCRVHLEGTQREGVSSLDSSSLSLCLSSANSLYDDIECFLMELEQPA
Sequence	fitted relative affinity [z-score]
AGCTACTGAGTGGCAACACAGTGCTAG	-0.591
GACGGAATGGGACTGGGGACGTGCTAG	-0.571
GACGATTTCAGTTCTGAGACGTGCTAG	1.9
TCAGTTACGGAATTTCCCACTGTGCTA	1.34
GACGGTATCCTTCTCCTAACGTGCTAG	1.23
CACTCTCTGCTTGTATCTGGGTGCTAG	2.07
TTAGGTTTCCTTATGCTTTAGTGCTAG	1.69
GACGGTTCCCTGTTCCTGACGTGCTAG	2.05
CTAAAAATCCCATTAAATTTGTGCTAG	-0.544
TCAGATTTCCCCACCATACTGTGCTAG	1.66
TTAGAACGGAGACTGGATTAGTGCTAG	-0.675
TTAGGGCTGGGACTGGGTTAGTGCTAG	-0.931
TCAACTTTCTTTTTTTCACTGTGCTAG	4.99
GGTCTGGCTGGCTCCTGCACGTGCTAG	-0.874
GACGATTGCGGGACTGGAGACGTGCTA	-0.21
GGTCTTTCTGTTTTCTCCATGTGCTAG	5.05
GAGGGTTTCGGTTCCGGGACGTGCTAG	8.71
TTAGGACTGAGACTGGATTAGTGCTAG	-0.782
TCCTGTGACGTTAAGGTCTCGTGCTAG	0.911

For quick reference, copied from above (study 3):
Sequence	E-score
GATCCGGA	-0.0974
AATCTCGA	-0.121
AGTCTGGA	-0.149
